Measurements pooled from the literature.
Numbered parts are unrelated; each lists some results of a single study.

Set 1
Target: Ras GTPase-activating protein-binding protein 1, C-terminal RGG region (G3BP1, Homo sapiens, UniProt Q13283)
Chain of UniProt Q13283 (whole entry, looked up): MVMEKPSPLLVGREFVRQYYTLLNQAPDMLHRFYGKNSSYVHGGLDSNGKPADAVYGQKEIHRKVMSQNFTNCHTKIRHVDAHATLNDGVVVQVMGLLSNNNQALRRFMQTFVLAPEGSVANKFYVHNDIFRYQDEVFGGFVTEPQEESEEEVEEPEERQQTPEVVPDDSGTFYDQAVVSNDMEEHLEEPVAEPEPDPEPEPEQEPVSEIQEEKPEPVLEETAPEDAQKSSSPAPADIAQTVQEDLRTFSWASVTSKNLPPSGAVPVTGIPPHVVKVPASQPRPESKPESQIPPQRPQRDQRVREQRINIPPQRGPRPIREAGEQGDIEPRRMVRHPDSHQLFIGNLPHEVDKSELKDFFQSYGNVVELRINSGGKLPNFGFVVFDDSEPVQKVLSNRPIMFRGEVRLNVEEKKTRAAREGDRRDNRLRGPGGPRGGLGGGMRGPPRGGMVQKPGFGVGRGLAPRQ
Technique: RNA Bind-n-Seq
Form: RNA
Matrix: in vitro
Tested at: 1 µM
Setting: whole 134-nt RNA, ends assumed
Together with: 150 mM KCl
Relative to: input library
Reading: higher = stronger binding
Measurement: log2 enrichment
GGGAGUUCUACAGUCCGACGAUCCCUGUGCUACACAUCGUAUGUACCGAAUCGGGAAAAAAAGGGUUUUUGGGUUUUUUUGGGAAAGUAUUAUGUUACGCCGUUCGGAUCUGCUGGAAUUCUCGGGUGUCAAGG: -1.69
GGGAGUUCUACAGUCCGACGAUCUAUCUUUAGAGGAGGAUCUGAUGGAUAUGGCAGUGGACGUGGAUUUGGGGAUGGCUAUAAUGGGUAUGGAGGAGGACCUGGAGGUGGCAAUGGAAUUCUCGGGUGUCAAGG: -1.5
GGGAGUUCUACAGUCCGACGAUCCCUGUGCUACACAUCGUAUGUACCGAAUCGGGGUUUUUUUGGGGUUUUUUUGGGGAGGGGAAAGUAUUAUGUUACGCCGUUCGGAUCUGCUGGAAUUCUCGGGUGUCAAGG: 0.151
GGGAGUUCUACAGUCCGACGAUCAGUCCUGUGCUACACAUCGUAUGUACCGAAUCGGCCCCCGGCCCCCGGCCCCCGGGGAAAGUAUUAUGUUACGCCGUUCGGAUCUGCACUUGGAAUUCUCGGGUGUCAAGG: -1.61
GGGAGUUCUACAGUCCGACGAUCUAGUUUAUGCCAACGUGACUUCAUUCAUACAGAUGAACCAAGGAUCGGGAUAGCAGUAUAAAAUUAGAAUCAAGACAGCUGACUGCUCAGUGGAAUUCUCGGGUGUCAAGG: -2.6
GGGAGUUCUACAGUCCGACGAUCCCUGUGCUACACAUCGUAUGUACCGAAUCGGGAAAAAGGGAAAAAAAGGGUUUUUUUGGGAAAGUAUUAUGUUACGCCGUUCGGAUCUGCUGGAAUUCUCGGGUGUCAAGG: -1.71

Set 2
Target: RING finger protein unkempt homolog, zinc fingers 1-6, GST-SBP tag (UNK, Homo sapiens, UniProt Q9C0B0, residues 30-357)
Chain of UniProt Q9C0B0 (30-357, looked up): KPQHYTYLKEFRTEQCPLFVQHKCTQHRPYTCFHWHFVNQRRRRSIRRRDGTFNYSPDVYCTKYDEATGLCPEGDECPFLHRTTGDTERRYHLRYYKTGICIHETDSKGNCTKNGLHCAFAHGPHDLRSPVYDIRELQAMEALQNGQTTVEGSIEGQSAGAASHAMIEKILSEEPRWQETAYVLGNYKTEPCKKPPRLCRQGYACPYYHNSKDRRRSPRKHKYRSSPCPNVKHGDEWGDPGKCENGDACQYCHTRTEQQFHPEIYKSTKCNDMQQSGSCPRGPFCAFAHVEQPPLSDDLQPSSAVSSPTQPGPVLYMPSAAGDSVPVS
Technique: RNA Bind-n-Seq
Form: RNA
Matrix: in vitro
Tested at: not given
Setting: RNA with constant flanks, ends assumed
Relative to: input RNA pool
Reading: higher = stronger binding
Measurement: bound/input enrichment
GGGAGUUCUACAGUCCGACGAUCCACAAUUGCUCUUACAAUUACAAAGCCGAUGCUGCUGAGAAAAUCAGAAAAGAAAAUCCAGCCGUUGUUGGUGAAAAGAUCCAAAAGAUUUGAACUCCUGCUGGAAUACAAAAUUCUUGACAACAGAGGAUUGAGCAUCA: 0.192 ratio
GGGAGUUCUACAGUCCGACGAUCUGUGUUCACAAUUACGUGAAGGGAGGACCCUUGGGGACCGCCAUUCUAAAUAUCAUGCCGGAAUUUAAAAAGCCAAAAUACUAAUUAUUUCUUUGUAGUGUGUAAAGGAAUGUUUUUAAACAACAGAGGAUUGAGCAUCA: 0.274 ratio
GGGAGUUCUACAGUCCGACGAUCGUUUUCUAUUCUCCCUCUACCUUAUCCCCCACCCCCACCCCACCCCACCCCUUUUUUAUUCCGUUUUAUUUACUUUACCUAGUAUGGCUUUUUUAGUUGCUUCUCAAGUCAGAAAACUUCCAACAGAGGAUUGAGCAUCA: 1.32 ratio
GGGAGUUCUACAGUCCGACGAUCGUGCUCCCUCGGGAUCUCUUCCAAAAGCUUUUCCGACAGGACCUGCUCGUGGCAAGUUUGUUCCGAAAUUUUUUAUUGGCAGAAAGAAUCAUGAGGUCAUAUAACUGCACCCCAGUAAGCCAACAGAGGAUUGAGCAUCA: 0.119 ratio
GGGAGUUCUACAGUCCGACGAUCAUUUAAAAUGUAGUUAGUUAUAUUUAAUGACCUCAUUCCUAAGUUCCUUUUUCGUUAAUGCCGCUUUCAUUUCUGUUAUUGCUGUUUGAAUAAUAUGAUUAAAUAGAAGGUUUGUGCCAGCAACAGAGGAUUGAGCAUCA: 10.1 ratio
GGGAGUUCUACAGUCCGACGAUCGGUCGGCUCUACCAAGUAGAAUAUGCUUUUAAGGCUAUUAACCAGGGUGGCCUUACAUCAGCCGCUGUCAGAGGGAAAGACUGUGCAGUAAUUGUCACACAGAAGAAAGUACCUGACAAACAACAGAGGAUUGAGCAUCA: 0.192 ratio
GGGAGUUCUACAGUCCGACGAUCGGUGGGGAGGGCAAUGUGGGGGCAGGGGAACAUGUCAUUGUGAUGACUUUUUUGAUAUUCAUCCGAAACAAUACAUCCUUUCUGAGAUAUUUACAGUAUUAUUAAAAAAUGAAAAAGGUUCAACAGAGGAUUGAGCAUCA: 0.793 ratio

Set 3
Target: Prothrombin, mature alpha-thrombin (F2, Homo sapiens, UniProt P00734)
Technique: aptamer microarray, sandwich
Form: DNA with 2'F-ANA
Matrix: in vitro
Tested at: 200 nM
Setting: whole 15-mer aptamer, many near background
Together with: Cy3 exosite-II aptamer, 400 nM
Reading: higher = stronger binding
Measurement: mean fluorescence intensity
Sequence: GGTTGGTGTGGTTGG
2'F-ANA at 2 3 5 7 8 12 14 15: 69.2 a.u.
2'F-ANA at 6 7 8 10 13 14: 101 a.u.
2'F-ANA at 3 4 5 6 7 8 10 14 15: 45.4 a.u.
2'F-ANA at 1 4 8 9 11 12 13 15: 140 a.u.
2'F-ANA at 2 4 5 7 10 11 12 14: 44.8 a.u.
2'F-ANA at 2 3 8 10 12 15: 438 a.u.
2'F-ANA at 2 6 7 9 10 11 12 13 14: 77.9 a.u.
2'F-ANA at 2 4 6 8 9 12 13 15: 301 a.u.
2'F-ANA at 1 2 3 4 8 13 15: 157 a.u.
2'F-ANA at 2 5 6 9 11 12 14: 49.2 a.u.

Set 4
Target: Phosphate system positive regulatory protein PHO4, full length, GST-tagged (PHO4, Saccharomyces cerevisiae, UniProt P07270, residues 1-312)
Technique: competition protein-binding microarray
Form: double-stranded DNA, one strand shown
Matrix: in vitro
Tested at: 2 µM
Setting: whole 60-bp probe, lowest competitor level
Together with: Cbf1 competitor, 0.05 µM
Reading: higher = stronger binding
Measurement: fluorescence intensity
Construct (chain): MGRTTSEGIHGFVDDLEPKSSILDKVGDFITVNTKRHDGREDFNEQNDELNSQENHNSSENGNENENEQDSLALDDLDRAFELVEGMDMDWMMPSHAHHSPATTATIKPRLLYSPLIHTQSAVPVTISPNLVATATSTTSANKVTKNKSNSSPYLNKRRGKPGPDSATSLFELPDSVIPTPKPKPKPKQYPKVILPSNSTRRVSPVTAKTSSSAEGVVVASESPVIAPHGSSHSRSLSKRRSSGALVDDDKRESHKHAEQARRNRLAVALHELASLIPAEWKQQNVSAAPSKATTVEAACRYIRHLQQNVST
CTTTCCCGATCTTGGATAGTGGGTGTAGCACATTTGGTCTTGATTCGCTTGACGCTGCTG: 4390 a.u.
TCGCCGAAACCTTGAAGCATGACAAGAATTTATAGTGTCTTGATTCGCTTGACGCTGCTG: 5860 a.u.
TGTAGTTAAACAGTCCACGTGTATTTGACTGCAGTAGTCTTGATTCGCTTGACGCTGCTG: 17500 a.u.
TAGTGTGTAATGTAAAGCGTGCGATTCTTGATCTGGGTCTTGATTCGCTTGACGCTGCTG: 8470 a.u.
CGGGGTTAAGTTTGTCACGATACTTGCTTGCAGCAGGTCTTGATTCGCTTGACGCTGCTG: 5820 a.u.
TGACACCCCCCAACACACGTTCCGCCCACTTTTTTTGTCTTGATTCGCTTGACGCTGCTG: 7750 a.u.
ATCTAAAAGTTGGATAACGTGCTTTGGAATTTCTGAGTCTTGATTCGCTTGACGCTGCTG: 10600 a.u.
CGGGGTTAAGTTTGAGGGGTGGGTGGCTTGCAGCAGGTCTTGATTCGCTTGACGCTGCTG: 5580 a.u.
AGCGAGCCGGCGGCAATCGTGGGACGCGATGGCACTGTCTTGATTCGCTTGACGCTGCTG: 6080 a.u.
AAATTACTAAGTTGACACGTGGGTGACGCCGTATGAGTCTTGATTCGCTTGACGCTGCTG: 19800 a.u.

A few entries again (set 2):
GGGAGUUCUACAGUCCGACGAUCCACAAUUGCUCUUACAAUUACAAAGCCGAUGCUGCUGAGAAAAUCAGAAAAGAAAAUCCAGCCGUUGUUGGUGAAAAGAUCCAAAAGAUUUGAACUCCUGCUGGAAUACAAAAUUCUUGACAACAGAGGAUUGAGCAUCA: 0.192 ratio
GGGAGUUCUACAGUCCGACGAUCUGUGUUCACAAUUACGUGAAGGGAGGACCCUUGGGGACCGCCAUUCUAAAUAUCAUGCCGGAAUUUAAAAAGCCAAAAUACUAAUUAUUUCUUUGUAGUGUGUAAAGGAAUGUUUUUAAACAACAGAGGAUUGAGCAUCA: 0.274 ratio
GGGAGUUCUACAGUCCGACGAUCGUUUUCUAUUCUCCCUCUACCUUAUCCCCCACCCCCACCCCACCCCACCCCUUUUUUAUUCCGUUUUAUUUACUUUACCUAGUAUGGCUUUUUUAGUUGCUUCUCAAGUCAGAAAACUUCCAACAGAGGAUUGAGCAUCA: 1.32 ratio
